Experimental data pooled from the literature.
± marks the error that the study gave. ≈ marks a conversion by molar mass, not a printed value.
B1: α2-macroglobulin; sequence looked up; chain SVSGKPQYMVLVPSLLHTETTEKGCVLLSYLNETVTVSASLESVRGNRSLFTDLEAENDVLHCVAFAVPKSSSNEEVMFLTVQVKGPTQEFKKRTTVMVKNEDSLVFVQTDKSIYKPGQTVKFRVVSMDENFHPLNELIPLVYIQDPKGNRIAQWQSFQLEGGLKQFSFPLSSEPFQGSYKVVVQKKSGGRTEHPFTVEEFVLPKFEVQVTVPKIITILEEEMNVSVCGLYTYGKPVPGHVTVSICRKYSDASDCHGEDSQAFCEKFSGQLNSHGCFYQQVKTKVFQLKRKEYEMKLHTEAQIQEEGTVVELTGRQSSEITRTITKLSFVKVDSHFRQGIPFFGQVRLVDGKGVPIPNKVIFIRGNEANYYSNATTDEHGLVQFSINTTNVMGTSLTVRVNYKDRSPCYGYQWVSEEHEEAHHTAYLVFSPSKSFVHLEPMSHELPCGHTQTVQAHYILNGGTLLGLKKLSFYYLIMAKGGIVRTGTHGLLVKQEDMKGHFSISIPVKSDIAPVARLLIYAVLPTGDVIGDSAKYDVENCLANKVDLSFSPSQSLPASHAHLRVTAAPQSVCALRAVDQSVLLMKPDAELSASSVYNLLPEKDLTGFPGPLNDQDNEDCINRHNVYINGITYTPVSSTNEKDMYSFLEDMGLKAFTNSKIRKPKMCPQLQQYEMHGPEGLRVGFYESDVMGRGHARLVHVEEPHTETVRKYFPETWIWDLVVVNSAGVAEVGVTVPDTITEWKAGAFCLSEDAGLGISSTASLRAFQPFFVELTMPYSVIRGEAFTLKATVLNYLPKCIRVSVQLEASPAFLAVPVEKEQAPHCICANGRQTVSWAVTPKSLGNVNFTVSAEALESQELCGTEVPSVPEHGRKDTVIKPLLVEPEGLEKETTFNSLLCPSGGEVSEELSLKLPPNVVEESARASVSVLGDILGSAMQNTQNLLQMPYGCGEQNMVLFAPNIYVLDYLNETQQLTPEIKSKAIGYLNTGYQRQLNYKHYDGSYSTFGERYGRNQGNTWLTAFVLKTFAQARAYIFIDEAHITQALIWLSQRQKDNGCFRSSGSLLNNAIKGGVEDEVTLSAYITIALLEIPLTVTHPVVRNALFCLESAWKTAQEGDHGSHVYTKALLAYAFALAGNQDKRKEVLKSLNEEAVKKDNSVHWERPQKPKAPVGHFYEPQAPSAEVEMTSYVLLAYLTAQPAPTSEDLTSATNIVKWITKQQNAQGGFSSTQDTVVALHALSKYGAATFTRTGKAAQVTIQSSGTFSSKFQVDNNNRLLLQQVSLPELPGEYSMKVTGEGCVYLQTSLKYNILPEKEEFPFALGVQTLPQTCDEPKAHTSFQISLSVSYTGSRSASNMAIVDVKMVSGFIPLKPTVKMLERSNHVSRTEVSSNHVLIYLDKVSNQTLSLFFTVLQDVPVRDLKPAIVKVYDYYETDEFAIAEYNAPCSKDLGNA
B2: haptoglobin; sequence looked up; chain VDSGNDVTDIADDGCPKPPEIAHGYVEHSVRYQCKNYYKLRTEGDGVYTLNDKKQWINKAVGDKLPECEADDGCPKPPEIAHGYVEHSVRYQCKNYYKLRTEGDGVYTLNNEKQWINKAVGDKLPECEAVCGKPKNPANPVQRILGGHLDAKGSFPWQAKMVSHHNLTTGATLINEQWLLTTAKNLFLNHSENATAKDIAPTLTLYVGKKQLVEIEKVVLHPNYSQVDIGLIKLKQKVSVNERVMPICLPSKDYAEVGRVGYVSGWGRNANFKFTDHLKYVMLPVADQDQCIRHYEGSTVPEKKTPKSPVGVQPILNEHTFCAGMSKYQEDTCYGDAGSAFAVHDLEEDTWYATGILSFDKSCAVAEYGVYVKVTSIQDWVQKTIAEN
B3: Plasminogen; sequence looked up; chain EPLDDYVNTQGASLFSVTKKQLGAGSIEECAAKCEEDEEFTCRAFQYHSKEQQCVIMAENRKSSIIIRMRDVVLFEKKVYLSECKTGNGKNYRGTMSKTKNGITCQKWSSTSPHRPRFSPATHPSEGLEENYCRNPDNDPQGPWCYTTDPEKRYDYCDILECEEECMHCSGENYDGKISKTMSGLECQAWDSQSPHAHGYIPSKFPNKNLKKNYCRNPDRELRPWCFTTDPNKRWELCDIPRCTTPPPSSGPTYQCLKGTGENYRGNVAVTVSGHTCQHWSAQTPHTHNRTPENFPCKNLDENYCRNPDGKRAPWCHTTNSQVRWEYCKIPSCDSSPVSTEQLAPTAPPELTPVVQDCYHGDGQSYRGTSSTTTTGKKCQSWSSMTPHRHQKTPENYPNAGLTMNYCRNPDADKGPWCFTTDPSVRWEYCNLKKCSGTEASVVAPPPVVLLPDVETPSEEDCMFGNGKGYRGKRATTVTGTPCQDWAAQEPHRHSIFTPETNPRAGLEKNYCRNPDGDVGGPWCYTTNPRKLYDYCDVPQCAAPSFDCGKPQVEPKKCPGRVVGGCVAHPHSWPWQVSLRTRFGMHFCGGTLISPEWVLTAAHCLEKSPRPSSYKVILGAHQEVNLEPHVQEIEVSRLFLEPTRKDIALLKLSSPAVITDKVIPACLPSPNYVVADRTECFITGWGETQGTFGAGLLKEAQLPVIENKVCNRYEFLNGRVQSTELCAGHLAGGTDSCQGDSGGPLVCFEKDKYILQGVTSWGLGCARPNKPGVYVRVSRFVTWIEGVMRNN

| Molecule | target | test | test system | conditions | scale | endpoint | result |
| --- | --- | --- | --- | --- | --- | --- | --- |
| Cc1cc(Nc2nc(N[C@@H](C)c3ncc(F)cn3)ncc2Cl)n[nH]1 | STAT5A/STAT5B | DNA binding, inhibitor, EMSA | COS-7 | 25 nM, 2 h, with: human prolactin | reference: vehicle | inhibition | > 50% |
| CC(C)CC(N)C(=O)NC(CO)C(O)c1ccc([N+](=O)[O-])cc1 (stereo not shown) | Escherichia coli 70S ribosome | binding, fluorescence polarization |  | with: BODIPY-erythromycin 4 nM |  | Kd | 36 ± 6 µM |
| CC[N+](CC)(CC)CC(=O)Nc1c(C)cccc1C | sodium channel (rat brain), batrachotoxin-modified | open channel block, blocker, planar lipid bilayer, single channel |  | low-Kd period, +50 mV |  | koff | 339 s⁻¹ |
| cholecystokinin octapeptide | Yes kinase, rat | Western blot, measured: Yes pY416 | pancreatic acini | 100 nM, 1 min | reference: untreated control | phosphorylation level | 334 ± 53% |
| CC(=O)NC(C)C(=O)NC(CO)C(O)c1ccc([N+](=O)[O-])cc1 (stereo not shown) | Escherichia coli 70S ribosome | binding, fluorescence polarization |  | with: BODIPY-erythromycin 4 nM |  | Kd | 55 ± 13 µM |
| [Met(O)35]Aβ40 | methionine sulfoxide reductase (rat) | HPLC, dabsyl-Met(O) | rat primary cortical neurons | 10 µM, 24 h | reference: untreated cells | Msr activity increase | 25 ± 6% |
| COC(Cn1ccn2cc(C(=O)NCc3ccc(F)cc3F)c(=O)c(O)c2c1=O)OC | HIV-1 integrase wild type | viral replication | HOS, HIV-1 | single-round vector |  | EC50 | 0.0033 ± 0.0003 µM |
| CCN1CCN(C(=O)N[C@@H](C(=O)N[C@@H]2C(=O)N3[C@@H]2SC(C)(C)[C@@H]3C(=O)O)c2ccccc2)C(=O)C1=O | PBP5/6 Escherichia coli | Bocillin-FL binding, inhibitor | Escherichia coli, MG1655 | 30 min, Tris-EDTA permeabilised, with: Bocillin-FL 25 µM |  | apparent IC50 | 10 ± 13 µM |
| CCCOC(=O)Cc1ccc(OCC(=O)N(CC)CC)c(OCC)c1 | GABA-A receptor rat | GABA-evoked chloride current, positive allosteric modulator, whole-cell patch clamp | embryonic rat cortical neurons | pH 7.4, holding -60 mV, with: GABA 5 µM |  | EC50 | 36 µM |
| NC(Cc1c[nH]c2ccccc12)C(=O)NC(CO)C(O)c1ccc([N+](=O)[O-])cc1 (stereo not shown) | Escherichia coli 70S ribosome | binding, fluorescence polarization |  | with: BODIPY-erythromycin 4 nM |  | Kd | 12 ± 2 µM |
| GIGKWLHSAKKFGKAFVGEIMNS-NH2 (C-amide) | 15 bp duplex DNA | DNA binding, near-UV circular dichroism | peptide | room temperature, with: 1.66 µM DNA, peptide titrated |  | CD slope at 272 nm | -0.113 ± 0.02 |
| Oc1cc(O)cc(/C=C/c2ccccc2)c1 | Sp1 (human) | reporter gene, inhibitor | SW1353 | control transcription factor |  | IC50 | 12.5 µg/mL (≈ 58.9 µM) |
| CO/N=C(\C(=O)N[C@@H]1C(=O)N2C(C(=O)O)=C(CSc3nc(=O)c(=O)[nH]n3C)CS[C@H]12)c1csc(N)n1 | PBP5/6 Escherichia coli | Bocillin-FL binding, inhibitor | Escherichia coli, MG1655 | 30 min, Tris-EDTA permeabilised, with: Bocillin-FL 25 µM |  | apparent IC50 | 15 ± 17 µM |
| C=CC(=O)OCCO | lysine-containing peptide | mass spectrometry |  | 24 h, pH 10.2, room temperature |  | maximal peptide depletion | -111% |
| [Met(O2)35]Aβ40 | methionine sulfoxide reductase (rat) | HPLC, dabsyl-Met(O) | rat primary cortical neurons | 10 µM, 24 h | reference: untreated cells | Msr activity decrease | 3 ± 4% |
| IWWHIAKFG | adeno-associated virus 9 | capsid binding, bind-and-elute chromatography | peptide | peptide ligand resin, MgCl2 elution |  | recovery yield | 61.7% |
| B1 (α2-macroglobulin) | anti-oxytocin rabbit polyclonal IgG | cross-reactivity, oxytocin EIA, Enzo |  | 3 µg/mL |  | apparent oxytocin concentration | 2.1 ± 1.1 pg/mL |

| Molecule | target | test | test system | conditions | scale | endpoint | result |
| --- | --- | --- | --- | --- | --- | --- | --- |
| anthraquinone-neomycin | poly(dA)·2poly(dT) triplex | triplex melting, UV melting |  | pH 6.8 |  | Tm | 68 °C |
| complement C3 | anti-oxytocin rabbit polyclonal IgG | cross-reactivity, oxytocin EIA, Enzo |  | 3 µg/mL |  | apparent oxytocin concentration | 4.4 ± 2.3 pg/mL |
| CSS(C)(=O)=O | Chlamydomonas reinhardtii arsenite methyltransferase Y72W | Y72W tryptophan fluorescence quenching, fluorescence quenching |  |  |  | EC50 | ~50 µM |
| CC(C)[C@H](NC(=O)CNC(=O)CNC(=O)CNC(=O)[C@H](CCCNC(=N)N)NC(=O)[C@H](CCCNC(=N)N)NC(=O)[C@H](CCCNC(=N)N)NC(=O)[C@H](CCC(N)=O)NC(=O)[C@H](CCCNC(=N)N)NC(=O)[C@H](CCCNC(=N)N)NC(=O)[C@H](CCCCN)NC(=O)[C@H](CCCCN)NC(=O)[C@H](CCCNC(=N)N)NC(=O)CNC(=O)[C@@H](N)Cc1ccc(O)cc1)C(=O)N[C@H](C(=O)N[C@H](C(=O)N[C@@H](C)C(=O)O)[C@@H](C)O)C(C)C | ClpP and alpha-synuclein ΔC (human) | inhibitor, co-immunoprecipitation | HEK293T cells |  |  | protein interaction | inhibited |
| CCC(C)C(N)C(=O)NC(CO)C(O)c1ccc([N+](=O)[O-])cc1 (stereo not shown) | Escherichia coli 70S ribosome | binding, fluorescence polarization |  | with: BODIPY-erythromycin 4 nM |  | Kd | 36 ± 10 µM |
| COc1ccc(/C=C/c2cc(O)cc(O[C@@H]3O[C@H](CO)[C@@H](O)[C@H](O)[C@H]3O)c2)cc1O | Sp1 (human) | reporter gene, inhibitor | SW1353 | control transcription factor |  | IC50 | > 25 µg/mL |
| NC(=O)CC[C@H](N)C(=O)N[C@H](CO)[C@H](O)c1ccc([N+](=O)[O-])cc1 | Escherichia coli 70S ribosome | binding, fluorescence polarization |  | with: BODIPY-erythromycin 4 nM |  | Kd | 6.3 ± 5.1 µM |
| B2 (haptoglobin) | anti-oxytocin rabbit polyclonal IgG | cross-reactivity, oxytocin EIA, Enzo |  | 3 µg/mL |  | apparent oxytocin concentration | 1.5 ± 1.4 pg/mL |
| O=C(NC(CO)C(O)c1ccc([N+](=O)[O-])cc1)C1CCCN1 (stereo not shown) | Escherichia coli 70S ribosome | binding, fluorescence polarization |  | with: BODIPY-erythromycin 4 nM |  | Kd | 7.5 ± 1.6 µM |
| O=C(N[C@H](Cn1ccnc1)c1ccc(Cl)cc1Cl)c1ccc(-c2nnc(-c3ccccc3)o2)cc1 (single isomer, unassigned) | Leishmania infantum CYP51 |  |  | concentration not given |  | remaining activity | 96 ± 6.3% |
| CCCCCC1=C/C(=C/c2[nH]c(-c3ccc[nH]3)cc2OC)N=C1C | pre-miR-21 RNA | differential scanning fluorimetry |  |  | reference: untreated, positive = stabilisation | maximal ΔTm | 7 °C |
| complement C1q | anti-oxytocin rabbit polyclonal IgG | cross-reactivity, oxytocin EIA, Enzo |  | 3 µg/mL |  | apparent oxytocin concentration | 23.1 ± 3.2 pg/mL |
| COc1cc(/C=C/c2ccc(O)cc2)cc(OC)c1 | Sp1 (human) | reporter gene, inhibitor | SW1353 | control transcription factor |  | IC50 | > 25 µg/mL |
| Apolipoprotein A-II | anti-oxytocin rabbit polyclonal IgG | cross-reactivity, oxytocin EIA, Enzo |  | 3 µg/mL |  | apparent oxytocin concentration | 14.7 ± 3 pg/mL |
| CC(=O)C[C@@H](c1ccccc1)c1c(O)c2ccc(O)cc2oc1=O | UGT | measured: 7-glucuronide | human liver microsomes |  |  | Vmax1 | 1470 nmol/min/mg protein |
| Cc1cccc(CN2CCN(C(c3ccccc3)c3ccc(Cl)cc3)CC2)c1 (stereo not shown) | mouse CAR LBD in CAR:RXR | binding, HDX-MS |  | concentration not given, 10 to 3600 s, pH 8, 4 °C, residues 330-338, helix H10 | reference: unliganded CAR:RXR | deuterium exchange change | -10% |
| B3 (Plasminogen) | anti-oxytocin rabbit polyclonal IgG | cross-reactivity, oxytocin EIA, Enzo |  | 3 µg/mL |  | apparent oxytocin concentration | 1.6 ± 1.1 pg/mL |

Some of these lines once more:
| Molecule | target | test | test system | conditions | scale | endpoint | result |
| --- | --- | --- | --- | --- | --- | --- | --- |
| Cc1cccc(CN2CCN(C(c3ccccc3)c3ccc(Cl)cc3)CC2)c1 (stereo not shown) | mouse CAR LBD in CAR:RXR | binding, HDX-MS |  | concentration not given, 10 to 3600 s, pH 8, 4 °C, residues 330-338, helix H10 | reference: unliganded CAR:RXR | deuterium exchange change | -10% |
| O=C(N[C@H](Cn1ccnc1)c1ccc(Cl)cc1Cl)c1ccc(-c2nnc(-c3ccccc3)o2)cc1 (single isomer, unassigned) | Leishmania infantum CYP51 |  |  | concentration not given |  | remaining activity | 96 ± 6.3% |
